Assay results from different studies.
Lines come from different studies, so protocols differ. ± gives the spread as reported.
Chain of UniProt P00383 (whole entry, looked up): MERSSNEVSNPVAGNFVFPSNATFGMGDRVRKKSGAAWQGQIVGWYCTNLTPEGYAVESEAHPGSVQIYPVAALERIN
Chain of UniProt P97612 (whole entry, looked up): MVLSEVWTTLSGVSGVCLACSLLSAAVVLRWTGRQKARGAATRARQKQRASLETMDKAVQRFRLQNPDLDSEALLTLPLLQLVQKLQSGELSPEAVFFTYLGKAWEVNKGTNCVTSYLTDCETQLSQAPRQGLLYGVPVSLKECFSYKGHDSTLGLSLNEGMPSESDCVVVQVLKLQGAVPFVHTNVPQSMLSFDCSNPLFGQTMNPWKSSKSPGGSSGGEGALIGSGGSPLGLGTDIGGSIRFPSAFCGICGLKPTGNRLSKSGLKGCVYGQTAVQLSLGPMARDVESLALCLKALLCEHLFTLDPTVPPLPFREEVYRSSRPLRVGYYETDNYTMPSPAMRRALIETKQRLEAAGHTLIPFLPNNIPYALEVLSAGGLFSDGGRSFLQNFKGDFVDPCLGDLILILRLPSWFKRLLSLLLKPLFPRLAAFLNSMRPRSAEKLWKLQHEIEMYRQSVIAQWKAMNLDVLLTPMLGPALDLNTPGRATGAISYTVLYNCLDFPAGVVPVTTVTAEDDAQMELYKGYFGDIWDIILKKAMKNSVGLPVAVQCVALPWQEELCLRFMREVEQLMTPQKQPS
Chain of UniProt Q96D31 (whole entry, looked up): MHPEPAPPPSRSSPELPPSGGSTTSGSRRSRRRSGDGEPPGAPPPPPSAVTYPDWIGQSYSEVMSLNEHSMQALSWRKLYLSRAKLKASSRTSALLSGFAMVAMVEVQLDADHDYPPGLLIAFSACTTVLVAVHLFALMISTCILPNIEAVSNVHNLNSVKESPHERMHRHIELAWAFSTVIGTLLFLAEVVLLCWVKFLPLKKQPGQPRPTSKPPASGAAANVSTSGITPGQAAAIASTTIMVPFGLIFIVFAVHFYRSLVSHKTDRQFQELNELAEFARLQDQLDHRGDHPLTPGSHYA
Chain of UniProt P16389 (whole entry, looked up): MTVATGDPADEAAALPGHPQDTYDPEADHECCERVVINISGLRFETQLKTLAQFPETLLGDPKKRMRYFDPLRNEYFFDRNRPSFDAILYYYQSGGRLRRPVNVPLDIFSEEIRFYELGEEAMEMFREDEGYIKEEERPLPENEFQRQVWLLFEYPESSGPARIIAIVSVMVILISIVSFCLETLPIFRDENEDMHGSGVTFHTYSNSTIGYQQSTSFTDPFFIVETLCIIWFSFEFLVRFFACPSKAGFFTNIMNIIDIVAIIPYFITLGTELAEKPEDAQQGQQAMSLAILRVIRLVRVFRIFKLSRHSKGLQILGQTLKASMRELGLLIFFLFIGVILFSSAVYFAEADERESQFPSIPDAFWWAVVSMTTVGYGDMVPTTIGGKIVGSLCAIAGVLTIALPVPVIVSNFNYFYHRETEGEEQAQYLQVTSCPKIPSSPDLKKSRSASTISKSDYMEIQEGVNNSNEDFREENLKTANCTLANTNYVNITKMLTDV
Chain of UniProt P07333 (whole entry, looked up): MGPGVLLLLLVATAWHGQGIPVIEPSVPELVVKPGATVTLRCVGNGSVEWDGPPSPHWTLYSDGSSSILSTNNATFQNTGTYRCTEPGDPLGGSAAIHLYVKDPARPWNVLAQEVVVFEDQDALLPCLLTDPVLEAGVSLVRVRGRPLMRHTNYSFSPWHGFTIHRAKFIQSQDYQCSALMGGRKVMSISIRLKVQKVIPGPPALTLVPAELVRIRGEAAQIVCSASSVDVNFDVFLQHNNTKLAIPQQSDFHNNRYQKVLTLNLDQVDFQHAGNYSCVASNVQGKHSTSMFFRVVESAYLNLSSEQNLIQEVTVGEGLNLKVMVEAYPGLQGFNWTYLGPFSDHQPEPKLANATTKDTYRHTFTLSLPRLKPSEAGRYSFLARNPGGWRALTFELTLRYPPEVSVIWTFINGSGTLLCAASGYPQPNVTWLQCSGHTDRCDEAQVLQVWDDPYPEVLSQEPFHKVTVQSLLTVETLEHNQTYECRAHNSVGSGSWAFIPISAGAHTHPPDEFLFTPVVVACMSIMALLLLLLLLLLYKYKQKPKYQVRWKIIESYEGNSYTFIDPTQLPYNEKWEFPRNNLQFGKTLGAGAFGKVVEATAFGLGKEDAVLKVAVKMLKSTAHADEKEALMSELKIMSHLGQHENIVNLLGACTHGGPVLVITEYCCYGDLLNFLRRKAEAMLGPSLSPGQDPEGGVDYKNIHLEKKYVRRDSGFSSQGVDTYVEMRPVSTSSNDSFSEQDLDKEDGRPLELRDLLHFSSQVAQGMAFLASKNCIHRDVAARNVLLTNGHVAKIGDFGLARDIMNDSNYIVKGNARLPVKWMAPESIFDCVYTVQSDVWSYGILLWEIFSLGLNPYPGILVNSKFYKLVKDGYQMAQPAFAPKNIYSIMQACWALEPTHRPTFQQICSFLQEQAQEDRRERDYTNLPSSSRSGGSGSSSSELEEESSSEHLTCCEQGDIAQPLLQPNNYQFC
Chain of UniProt P07949 (whole entry, looked up): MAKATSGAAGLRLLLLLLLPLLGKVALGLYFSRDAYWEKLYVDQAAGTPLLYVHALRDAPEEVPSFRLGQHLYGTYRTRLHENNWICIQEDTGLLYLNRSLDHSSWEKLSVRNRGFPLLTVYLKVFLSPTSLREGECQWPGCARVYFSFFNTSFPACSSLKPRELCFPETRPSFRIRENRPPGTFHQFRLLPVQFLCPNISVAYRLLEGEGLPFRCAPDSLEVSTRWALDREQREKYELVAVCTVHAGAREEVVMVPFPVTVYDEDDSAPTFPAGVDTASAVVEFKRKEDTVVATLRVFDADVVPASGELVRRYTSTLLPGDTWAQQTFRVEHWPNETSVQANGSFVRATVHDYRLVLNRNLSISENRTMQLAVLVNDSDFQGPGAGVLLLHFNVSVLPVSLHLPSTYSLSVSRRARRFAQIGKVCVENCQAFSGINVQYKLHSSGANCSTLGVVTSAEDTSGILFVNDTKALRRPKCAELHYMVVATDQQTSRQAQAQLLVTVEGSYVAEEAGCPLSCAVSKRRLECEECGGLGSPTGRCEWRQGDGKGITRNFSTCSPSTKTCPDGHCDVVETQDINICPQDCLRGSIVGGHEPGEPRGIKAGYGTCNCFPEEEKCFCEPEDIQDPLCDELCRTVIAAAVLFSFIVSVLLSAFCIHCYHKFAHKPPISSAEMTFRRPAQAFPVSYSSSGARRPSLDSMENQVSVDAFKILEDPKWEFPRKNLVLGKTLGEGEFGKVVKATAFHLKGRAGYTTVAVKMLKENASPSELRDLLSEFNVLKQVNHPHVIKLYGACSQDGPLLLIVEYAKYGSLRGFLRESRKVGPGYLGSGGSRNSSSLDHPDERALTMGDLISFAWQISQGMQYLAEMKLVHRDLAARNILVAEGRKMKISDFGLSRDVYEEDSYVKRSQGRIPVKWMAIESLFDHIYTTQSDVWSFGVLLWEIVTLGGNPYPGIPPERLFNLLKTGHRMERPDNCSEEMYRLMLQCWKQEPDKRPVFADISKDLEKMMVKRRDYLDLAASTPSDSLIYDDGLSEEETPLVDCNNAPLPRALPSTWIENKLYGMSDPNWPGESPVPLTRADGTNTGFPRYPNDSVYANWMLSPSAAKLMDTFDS
Chain of UniProt Q13526 (whole entry, looked up): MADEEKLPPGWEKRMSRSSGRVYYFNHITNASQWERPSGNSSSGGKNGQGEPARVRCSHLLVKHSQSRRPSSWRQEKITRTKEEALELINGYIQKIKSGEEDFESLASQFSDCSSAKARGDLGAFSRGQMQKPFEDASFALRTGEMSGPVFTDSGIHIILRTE
Chain of UniProt B2RXH2 (whole entry, looked up): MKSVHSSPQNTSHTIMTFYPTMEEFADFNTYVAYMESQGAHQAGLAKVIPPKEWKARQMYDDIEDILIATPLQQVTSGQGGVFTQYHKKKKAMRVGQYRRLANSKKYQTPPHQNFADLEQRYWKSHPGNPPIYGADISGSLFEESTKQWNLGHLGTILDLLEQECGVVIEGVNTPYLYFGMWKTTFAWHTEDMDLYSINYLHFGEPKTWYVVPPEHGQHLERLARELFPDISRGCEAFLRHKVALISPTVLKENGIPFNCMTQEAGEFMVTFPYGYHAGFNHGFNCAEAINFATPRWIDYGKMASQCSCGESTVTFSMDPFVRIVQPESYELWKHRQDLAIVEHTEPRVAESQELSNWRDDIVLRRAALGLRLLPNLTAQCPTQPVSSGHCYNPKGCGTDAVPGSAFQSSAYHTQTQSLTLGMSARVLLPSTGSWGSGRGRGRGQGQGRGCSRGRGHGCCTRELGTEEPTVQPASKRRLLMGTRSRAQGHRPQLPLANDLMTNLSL
Chain of UniProt P07363 (whole entry, looked up): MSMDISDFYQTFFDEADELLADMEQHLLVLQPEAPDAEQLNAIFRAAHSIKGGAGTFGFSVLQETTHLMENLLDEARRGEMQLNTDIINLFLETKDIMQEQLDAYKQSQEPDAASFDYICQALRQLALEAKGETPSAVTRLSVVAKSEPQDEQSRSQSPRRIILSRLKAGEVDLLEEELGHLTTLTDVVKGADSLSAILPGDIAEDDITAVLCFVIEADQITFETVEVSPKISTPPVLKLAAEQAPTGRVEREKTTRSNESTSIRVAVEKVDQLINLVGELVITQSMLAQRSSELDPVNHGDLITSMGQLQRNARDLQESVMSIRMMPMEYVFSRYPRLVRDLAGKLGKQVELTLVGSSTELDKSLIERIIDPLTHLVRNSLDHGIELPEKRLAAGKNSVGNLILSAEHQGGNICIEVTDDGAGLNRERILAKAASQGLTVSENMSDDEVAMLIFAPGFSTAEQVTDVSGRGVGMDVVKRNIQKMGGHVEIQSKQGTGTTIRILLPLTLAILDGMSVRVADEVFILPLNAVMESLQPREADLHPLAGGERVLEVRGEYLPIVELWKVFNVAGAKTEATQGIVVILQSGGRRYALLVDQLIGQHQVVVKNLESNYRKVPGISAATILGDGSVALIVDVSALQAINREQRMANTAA

COc1cc(O)cc(-c2cc3ccc(OC)cc3o2)c1  IC50 (PPO3 (Agaricus bisporus, UniProt C7FF04); enzyme activity, inhibitor, absorbance; pH 6.8): 68.2 µM
Cn1cc(-c2nn(C)c3ncnc(N)c23)cn1  IC50 (Proto-oncogene tyrosine-protein kinase receptor Ret (RET, Homo sapiens, UniProt P07949); enzyme activity, inhibitor): 1.04 µM
O=C(OC(C(F)(F)F)C(F)(F)F)N1CCC(CCn2ncc3ccccc32)CC1  IC50 (Fatty-acid amide hydrolase 1 (Faah, Rattus norvegicus, UniProt P97612); enzyme activity, inhibitor): 4.1 µM
COC(=O)N1CCC(CN2CCC(CNC(=O)c3cccc4[nH]c(C(C)C)nc34)CC2)CC1  IC50 (Solute carrier organic anion transporter family member 1B3 (SLCO1B3, Homo sapiens, UniProt Q9NPD5); transporter uptake, inhibitor): > 10 µM
CC(C)C[C@@H](CN[C@@H](Cc1ccc(Cl)cc1)C(N)=O)NC(=O)[C@H](Cc1c[nH]cn1)NC(=O)CNC(=O)[C@@H](NC(=O)[C@H](C)NC(=O)[C@H](Cc1c[nH]c2ccccc12)NC(=O)[C@H](CCC(N)=O)NC(=O)[C@H](N)Cc1ccccc1)C(C)C  IC50 (Gastrin-releasing peptide receptor (GRPR, Homo sapiens, UniProt P30550); binding, radioligand binding; HuTu80): 0.00123 ± 9e-05 µM
Cc1[nH]nc2c1N=C(c1ccccc1Cl)c1cnc(N3CCOCC3)cc1N2  IC50 (Macrophage colony-stimulating factor 1 receptor (CSF1R, Homo sapiens, UniProt P07333); enzyme activity, inhibitor): 0.007 µM
O=C[C@H](C[C@H]1CCNC1=O)NC(=O)[C@H](CC1CCCCC1)NC(=O)OCc1ccccc1  IC50 (Genome polyprotein, 3C protease (rhinovirus B14, UniProt P03303); 3C protease activity, inhibitor, FRET): 0.073 ± 0.01 µM
CC1CN(c2ncnc3[nH]cnc23)CC(C)O1 (centres unmarked)  IC50 (Chemotaxis protein CheA (Escherichia coli, UniProt P07363); enzyme activity, inhibitor, radiometric): 709 µM
C[C@H](OP(=O)(O)O)[C@H]1NC(=O)[C@H](CCCNC(=N)N)NC(=O)[C@@H](CCCNC(=N)N)NC(=O)[C@H](CCCNC(=N)N)NC(=O)[C@H](Cc2ccc3ccccc3c2)NC(=O)[C@H](Cc2ccc3ccccc3c2)NC(=O)[C@@H]2CCCCN2C1=O  IC50 (Peptidyl-prolyl cis-trans isomerase NIMA-interacting 1 (PIN1, Homo sapiens, UniProt Q13526); fluorescence anisotropy competition; added: FITC-labelled probe): 2 ± 0.59 µM
O=C(NCCc1ccccn1)[C@@H]1Cc2ccccc2CN1S(=O)(=O)c1ccc2ccccc2c1  IC50 (KCNA2/KCNA1 (Homo sapiens, UniProt P16389+Q09470); potassium current, inhibitor, automated patch clamp; CHO-K1, concatemer expressing): 1.53 µM
COC(=O)C[C@H](NC(=O)[C@H](C)NC(=O)[C@@H](NC(=O)OCc1ccccc1)C(C)C)C(=O)CF  IC50 (Caspase-4 (Casp4, Mus musculus, UniProt P70343); enzyme activity, inhibitor, fluorescence): 0.004 µM
O=C(O)c1ccc(OCCCCCCCCOc2ccc(C(=O)O)cc2)cc1  IC50 (Dihydrofolate reductase type 2 (Escherichia coli, UniProt P00383); enzyme activity, inhibitor; pH 7): ≥ 500 µM
O=C(Nc1ccn(Cc2ccc(O)cc2C(F)(F)F)n1)c1c(F)cccc1F  IC50 (Calcium release-activated calcium channel protein 1, with STIM1 (ORAI1, Homo sapiens, UniProt Q96D31); STIM1-mediated current, inhibitor, whole-cell patch clamp; HEK293 cells; estimated from single concentrations): ~4.1 µM
O=C(O)C(=O)N[C@@H](CS)C(=O)O  IC50 (Lysine-specific demethylase 4E (KDM4E, Homo sapiens, UniProt B2RXH2); enzyme activity, inhibitor): > 1000 µM

Excerpt of the above:
COc1cc(O)cc(-c2cc3ccc(OC)cc3o2)c1  IC50 (PPO3 (Agaricus bisporus, UniProt C7FF04); enzyme activity, inhibitor, absorbance; pH 6.8): 68.2 µM
